# Published values of several laboratories.
# Each numbered part is a random draw from the data of one study; scales do not carry over between parts.

# Sample 1
# Target: Ras GTPase-activating protein-binding protein 1, full length (G3BP1, Homo sapiens, UniProt Q13283)
# UniProt Q13283, sequence (whole entry, looked up): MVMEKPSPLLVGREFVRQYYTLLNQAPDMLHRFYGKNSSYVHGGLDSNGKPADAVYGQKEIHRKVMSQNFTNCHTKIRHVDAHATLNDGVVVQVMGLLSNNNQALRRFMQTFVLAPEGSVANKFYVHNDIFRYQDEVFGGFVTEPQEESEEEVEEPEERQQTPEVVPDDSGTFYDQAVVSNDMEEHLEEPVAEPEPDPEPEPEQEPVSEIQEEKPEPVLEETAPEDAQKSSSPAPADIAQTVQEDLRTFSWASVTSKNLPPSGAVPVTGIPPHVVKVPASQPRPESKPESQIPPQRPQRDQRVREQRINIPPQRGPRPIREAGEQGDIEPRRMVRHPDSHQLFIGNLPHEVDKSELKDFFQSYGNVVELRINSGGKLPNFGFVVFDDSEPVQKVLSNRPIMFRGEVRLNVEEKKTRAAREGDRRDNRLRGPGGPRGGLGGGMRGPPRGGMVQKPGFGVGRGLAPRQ
# Method: RNA Bind-n-Seq
# Form: RNA
# Medium: in vitro
# Concentration: 200 nM
# Setting: whole 134-nt RNA, ends assumed
# With: 150 mM LiCl
# Baseline: input library
# Direction: higher = stronger binding
# Library: 7-deaza-guanosine replaces G
# Shared flanks, not repeated: GGGAGUUCUACAGUCCGACGAUC … UGGAAUUCUCGGGUGUCAAGG
Oligonucleotide,log2 enrichment
AAGUCCUGUGCUACACAUCGUAUGUACCGAAUCGGUUUUUGGUUUUUGGAAAAAGGAAAGUAUUAUGUUACGCCGUUCGGAUCUGCACUU,-0.976
GCAGGAAUUAAAAACAAAUGGAAAUGCUUCGGAUAGUGGCAGGGGUGGGGGUUGCUAAGGAAAGGGUGGGAUGGGAGUGGGUAAAGAGUU,0.113
UCAAGUCCUGUGCUACACAUCGUAUGUACCGAAUCGGGGUGGGGUGGGGUGGGGAAAGUAUUAUGUUACGCCGUUCGGAUCUGCACUUCC,-0.239
UAACUUUAGAGGAGGAUCUGAUGGCUAUGGCAGUGGACGUGGAUUUGGGGAUGGCUAUAAUGGGUAUGGAGGAGGACCUGGAGGUGGCAA,-0.207
CUCAAGUCCUGUGCUACACAUCGUAUGUACCGAAUCGGUUGGUUGGGUUGGGGAAAGUAUUAUGUUACGCCGUUCGGAUCUGCACUUCCA,-0.256
CUGUGCUACACAUCGUAUGUACCGAAUCGGGCCCCCCGGGGCCCCCCGGGGCCCCCCGGGGAAAGUAUUAUGUUACGCCGUUCGGAUCUG,-2.15
GUCCUGUGCUACACAUCGUAUGUACCGAAUCGGGAAAAAGGGUUUUUUUGGGAAAGGGAAAGUAUUAUGUUACGCCGUUCGGAUCUGCAC,-1.7
UGGGAGGUGGAUUUUGUUUAUUUUUUUAGCUCAUUUCCAGGGGUGGGAAUUUUUUUUUAAUAUGUGUCAUGAAUAAUGUUGUUUUUGAAA,-0.341

# Sample 2
# Target: Histone acetyltransferase KAT6A, winged helix 2, GST fusion (KAT6A, Homo sapiens, UniProt Q92794, residues 85-181)
# Method: protein binding microarray
# Form: double-stranded DNA, one strand shown
# Medium: in vitro
# Concentration: not given
# Setting: 8-mer, flanks averaged, mean of 2 arrays, mostly near background
# Baseline: not given
# Direction: higher = stronger binding
# Target sequence (chain): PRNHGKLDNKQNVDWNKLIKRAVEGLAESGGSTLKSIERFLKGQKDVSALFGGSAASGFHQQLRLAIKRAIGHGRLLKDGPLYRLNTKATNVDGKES
Oligonucleotide,E-score
CGCACACA,0.106
CCGGCATA,-0.00105
GTCTCGTA,-0.131
GAGTATGC,-0.015
ACCTGCAA,0.0108
CGGGAGCA,0.16
TGAACTCA,0.0123
AGAGTGGG,0.109
GATCAAGC,0.0176
ATCGAAGA,0.134
TCCTATAA,-0.127
GACCTAGC,0.0523
AGGTGACA,0.0492
GTTGGTCA,0.028
GCACAGGC,0.079
CGATACCC,-0.11
GAGCGTAC,0.0363
ATTGACCC,0.127
AAGCCCAT,-0.189

# Sample 3
# Target: RING finger protein unkempt homolog, zinc fingers 1-6, SBP tag (UNK, Homo sapiens, UniProt Q9C0B0, residues 30-357)
# UniProt Q9C0B0, sequence (30-357, looked up): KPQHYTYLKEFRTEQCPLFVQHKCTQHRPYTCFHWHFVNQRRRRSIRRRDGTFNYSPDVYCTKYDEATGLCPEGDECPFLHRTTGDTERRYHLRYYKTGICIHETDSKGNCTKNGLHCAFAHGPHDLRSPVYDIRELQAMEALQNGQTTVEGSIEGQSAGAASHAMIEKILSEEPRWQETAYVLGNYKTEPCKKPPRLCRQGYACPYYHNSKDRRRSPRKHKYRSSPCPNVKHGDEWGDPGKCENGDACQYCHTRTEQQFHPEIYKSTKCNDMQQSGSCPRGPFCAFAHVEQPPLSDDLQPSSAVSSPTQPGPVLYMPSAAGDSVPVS
# Method: RNA Bind-n-Seq
# Form: RNA
# Medium: in vitro
# Concentration: 100 nM
# Setting: RNA with constant flanks, vertebrate orthologous sites, ends assumed
# Baseline: input RNA pool
# Direction: higher = stronger binding
# Shared flanks, not repeated: GGGAGUUCUACAGUCCGACGAUC … CAACAGAGGAUUGAGCAUCA
Oligonucleotide,bound/input enrichment [ratio]
GUGACUUUGGGUGCCCGCAGAUACCGGGUGCAGGCCGUGUUAGGUUCGGUGUCGGCCAACUUUGUUCUCUCCUUCCGGAUCUGAAGCCUCUGCCGCAAACAUGAUCCGCCAUGCCAUCGG,0.221
UGAUCGCCACGUGGGACAACUUGACAACAACGAGUGCGAAGUCAUUUCCGUAGUCACAGGAGGUAGCUUAGGGCAGAGUCGCCAUGAUUCAACUCGUGCAAACUUUGUAAAUGUACAAUA,0.404
GUUAGGUCAUGACCCUUAUAGGCUAGGUCAUGAUGCUUACAGGUUAGGGCAAGACCCCUAUAGAUUAGGCCAUGAUCCCUACAGACUAACUCCUGAUCCCUAUAGGAUGUCACCUAGACC,0.622
GCAUGCACAUGCCGCUGUCACCAAAAGCAAACACGGUCUUCAAAAUCUCCAAUAGCAUUUUUAGUAUUCUCUCCCUCUUUCCUUUCUGUUCCCCUGAUGCUUUAAAUGAUUAGAAGUCCU,3.15
AAACGCAAUGGUUGAAGGCUCUGAGCUCAAAAAGAUUCGAUCCAACUCUAGGGUGUAUCACCGAUAUUUUCUUUUAGAUGCGGAUAUGCAAUCUCUACGCUGGGAACCUUCAAAAAAGGA,0.25
UUCAGGCACAACUGACUGGUUCACAGCAUUCCUUACAUAGUUACCUAGCAAAUACAGGUGUGGUUAAUUUUCAGGAAACAACCAGGCAGUCAUCUUUACCUUGUAGCCCAGUCAGAGAUU,0.996
CCUACAAUAAUGAAAACCUACAGGAAAUUUUUUAUUUUUCAUCAUCCCCUUAGGCAUAUUUAGGCUUUUCCCCAGGCAGAUCAUUCUGAGUGUGCGAGUGUGUGUGCACAUGUUACAAAG,1.11
GUAAUGCAUUUUGUGACUUGGAUGUGGUCUGCACGGGAAGCUGCUGGCCUCUCCACAACACAUUCAAUUUUUGUCUUUUUUUAAGAAGUUAAAACUGAAUUUAAUUUACUAAAACUGUAA,0.31

# Sample 4
# Target: Sal-like protein 4, full length isoform A (SALL4, Homo sapiens, UniProt Q9UJQ4, residues 1-1053)
# UniProt Q9UJQ4, sequence (whole entry, looked up): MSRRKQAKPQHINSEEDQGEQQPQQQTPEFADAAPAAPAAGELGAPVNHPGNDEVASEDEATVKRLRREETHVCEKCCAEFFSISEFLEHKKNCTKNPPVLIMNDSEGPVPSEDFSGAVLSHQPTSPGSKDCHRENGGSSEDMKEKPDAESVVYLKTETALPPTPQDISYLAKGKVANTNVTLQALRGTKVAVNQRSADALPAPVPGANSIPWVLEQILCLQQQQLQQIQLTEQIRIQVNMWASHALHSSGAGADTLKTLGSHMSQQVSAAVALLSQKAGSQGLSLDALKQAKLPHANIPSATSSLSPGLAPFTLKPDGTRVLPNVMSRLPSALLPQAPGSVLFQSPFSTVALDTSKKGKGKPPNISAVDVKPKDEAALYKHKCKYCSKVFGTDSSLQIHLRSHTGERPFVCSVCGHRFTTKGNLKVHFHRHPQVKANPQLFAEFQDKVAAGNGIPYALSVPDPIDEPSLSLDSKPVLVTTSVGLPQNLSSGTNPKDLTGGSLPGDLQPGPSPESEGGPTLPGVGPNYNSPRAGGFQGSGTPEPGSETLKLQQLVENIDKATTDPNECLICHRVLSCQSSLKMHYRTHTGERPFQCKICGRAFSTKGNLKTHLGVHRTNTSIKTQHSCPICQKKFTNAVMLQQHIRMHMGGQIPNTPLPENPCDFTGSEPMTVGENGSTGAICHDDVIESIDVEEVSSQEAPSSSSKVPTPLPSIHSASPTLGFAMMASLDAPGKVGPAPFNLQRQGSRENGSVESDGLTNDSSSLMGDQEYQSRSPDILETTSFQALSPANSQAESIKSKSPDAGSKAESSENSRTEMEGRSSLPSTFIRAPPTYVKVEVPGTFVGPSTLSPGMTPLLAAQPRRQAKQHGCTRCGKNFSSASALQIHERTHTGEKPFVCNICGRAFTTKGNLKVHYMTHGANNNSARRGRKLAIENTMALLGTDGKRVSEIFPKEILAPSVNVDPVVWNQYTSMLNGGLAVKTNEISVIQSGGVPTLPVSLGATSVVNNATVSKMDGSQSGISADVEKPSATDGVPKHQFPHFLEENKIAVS
# Method: universal PBM
# Form: double-stranded DNA, one strand shown
# Medium: in vitro
# Concentration: 600 nM
# Setting: 8-mer, flanks averaged, mean of replicates
# Direction: higher = stronger binding
Oligonucleotide,E-score
ACACTTGC,0.106
CTTATAAG,0.238
ATGCTGTC,-0.00212
CACACACC,-0.226
ACTCGTTC,0.062
CGCCCAAG,-0.28
CTATTGGC,-0.0066
AGCAGTGA,-0.0146
AAAAACGC,0.00085
AGAAAAGG,0.115
AGAGTGAT,0.0129
AGTCGAAC,-0.127
GTGCCTAA,-0.0359
AACCCAAC,-0.0552
GTGAAAAC,-0.0444
ACGATAGG,0.131
GATTTAAC,0.0844
ACAGACCC,-0.257
ACCAAAGT,0.012
ACATTCGT,0.123
AGCAGCAC,-0.262
CAATTTAA,0.312

# Sample 5
# Target: RNA binding protein fox-1 homolog 2, RRM domain, GST-SBP tag (RBFOX2, Homo sapiens, UniProt O43251-10, residues 100-194)
# Method: RNA Bind-n-Seq
# Form: RNA
# Medium: in vitro
# Concentration: 365 nM
# Setting: natural RNA segment, single round, ends assumed
# Baseline: no-protein control
# Direction: higher = stronger binding
# Shared flanks, not repeated: GGGAGUUCUACAGUCCGACGAUC … UGGAAUUCUCGGGUGCCAA
# Target sequence (chain): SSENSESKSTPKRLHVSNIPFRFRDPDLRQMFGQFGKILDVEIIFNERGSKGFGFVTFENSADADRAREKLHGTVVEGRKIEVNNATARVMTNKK
Oligonucleotide,RBNS enrichment (R)
CCCAAGAGAGCUCAUUUAAUUGUGCUGUGACAAUGAAGAUUACUGGAAUGAAUUUUUGUCUUUUGUAUUUUAAUCACUUGAGUGAAUCAACUAUUAGCAAAUUCCAUUUG,0.863
CUGGAGCCAUGCCGACCUCUACAAACCUUGAACAGGUGCACAGCCCCCUCUCCGGAGCGCUUUGUAAUGCCUUAUUCACGUCGAAAACCAGGAGACUCGGGCUUCGUUUC,0.335
CUCAAAGCAGCCAGCAAUGAGUGCUCUGUUUUGAUCCUUCUUCUUAUUAUGGAAAGGAGUACAGGACCUCUUCAGUCUUCCCCUUACCAGAGGUAGCCUCUGCAAAUGGC,0.261
GGUGGCUAAAUACCUAGCCUUUUACAUGUAAACCUGUCUGCAAAAUUAGCUUUUUUAAAAAAAAAAAAAAAAAAAUUGGGGGGGUUAAUUUAUCAUUCAGAAAUCUUGCA,2.22
UUGGAAUCUGUGGUGAAAAAUAAUUUUCUGAUUUCCAAAUACAUUAAGAGCAUUAAAUGAAUAUUAAUCACCUUUAAAGUCUUUUAGAAAAGGACUUGUAUUGGUUUUUG,0.458
GUCCCAAGUUCUUCAGUUACAACCUAGUAGUAUACUUACUCUUCCAACUGUCCUAAGGUCACUUCCCAGCCAGCUUAGGAUCUUCAGCAUUUUUAAGAGCUGAAGCUCCC,0.594
GGACUUCCCUCCAGCUGCCUCUUCAUCUGGGAAUGAGCUAAGCAAGGCUGAGCCUCCUCCUGUUGCUGAAAUAAUGAUGAUAUAAAGGCUGGAUUUGGAGUUUGUAUCCC,0.435
CUCCAUGGAUUUUCUUCCCUGUAAGUGCCGGGCCCCUCACCCCAGCUGACAGGCUGUUGCUGUGCCUGCUCACACCUGCUCCUGCAGGCACACUGGGCUAGGGACGAGGA,0.239

# Repeated from above (sample 2):
Oligonucleotide,E-score
GACCTAGC,0.0523
AGGTGACA,0.0492
GTTGGTCA,0.028
GCACAGGC,0.079
CGATACCC,-0.11
